# Assay results from different studies.
# Every numbered part comes from another study and shows a few of its results, in no order.

# Set 1
# Target: Histone acetyltransferase KAT6A, winged helix 1, GST fusion (KAT6A, Homo sapiens, UniProt Q92794, residues 1-85)
# Technique: protein binding microarray
# Form: double-stranded DNA, one strand shown
# Medium: in vitro
# Concentration: not given
# Notes: 8-mer, flanks averaged, mean of 2 arrays, mostly near background
# Relative to: not given
# Reading: higher = stronger binding
# Residues (chain): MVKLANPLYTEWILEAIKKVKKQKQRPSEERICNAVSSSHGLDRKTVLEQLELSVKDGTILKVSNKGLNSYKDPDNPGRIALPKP
Strand,E-score
GAGGCGCC,0.257
GTAGTTTA,-0.0318
AGAATACG,0.149
ATCATAAT,-0.151
AAAATCGC,0.093
ATTGTATA,-0.0776
GTTGCTTA,-0.0637
ATTTGTTA,-0.0102
GCCAGACC,0.0427
ACAGGCAC,-0.0924
CCATCCAA,-0.148
AGTTGCAC,-0.202
CGCCATGC,0.188
AGTAAGCC,0.12

# Set 2
# Target: POU domain, class 5, transcription factor 1, POU domain (Pou5f1, Mus musculus, UniProt P20263, residues 131-289)
# Sequence of UniProt P20263 (131-289, looked up): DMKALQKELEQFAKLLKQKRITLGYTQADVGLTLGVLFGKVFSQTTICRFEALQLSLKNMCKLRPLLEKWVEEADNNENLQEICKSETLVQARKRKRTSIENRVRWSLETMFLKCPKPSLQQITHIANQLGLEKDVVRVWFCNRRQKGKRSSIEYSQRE
# Technique: Spec-seq
# Form: double-stranded DNA, one strand shown
# Medium: in vitro
# Concentration: not given
# Notes: whole probe, mean of replicates
# Relative to: not given
# Reading: lower = stronger binding
# Constant ends, left off below: GAGTCGTCTCGTCAGCAC … CCGTAGAGCACTCAGGTC
Strand,relative binding energy
ATATCCAT,-0.717 ln ratio
ATGATTAT,-0.4 ln ratio
ATGGGGAT,0.566 ln ratio
CCGCTAAT,0.685 ln ratio
TGGGTAAT,0.846 ln ratio
GACCTAAT,0.808 ln ratio
ACTGTAAT,0.669 ln ratio
ATAAGGAT,0.567 ln ratio
GAGTTAAT,0.528 ln ratio
ATGCGTGT,0.371 ln ratio
ATGCGAGC,0.491 ln ratio

# Set 3
# Target: Ras GTPase-activating protein-binding protein 1, RRM domain (G3BP1, Homo sapiens, UniProt Q13283)
# Sequence of UniProt Q13283 (whole entry, looked up): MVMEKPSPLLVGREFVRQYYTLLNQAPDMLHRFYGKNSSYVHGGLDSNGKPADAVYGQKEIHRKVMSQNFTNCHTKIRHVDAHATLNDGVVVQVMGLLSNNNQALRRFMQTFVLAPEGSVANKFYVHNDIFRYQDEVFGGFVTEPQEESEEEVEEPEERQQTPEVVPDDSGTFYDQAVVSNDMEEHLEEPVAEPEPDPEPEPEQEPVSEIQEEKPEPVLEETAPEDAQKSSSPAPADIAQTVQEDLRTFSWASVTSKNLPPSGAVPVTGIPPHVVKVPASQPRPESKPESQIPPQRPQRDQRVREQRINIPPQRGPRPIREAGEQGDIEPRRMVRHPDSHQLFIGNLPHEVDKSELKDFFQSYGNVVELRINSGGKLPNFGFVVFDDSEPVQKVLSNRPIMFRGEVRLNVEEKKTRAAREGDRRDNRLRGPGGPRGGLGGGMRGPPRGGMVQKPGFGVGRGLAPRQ
# Technique: RNA Bind-n-Seq
# Form: RNA
# Medium: in vitro
# Concentration: 1 µM
# Notes: whole 134-nt RNA, ends assumed
# Together with: 150 mM KCl
# Relative to: input library
# Reading: higher = stronger binding
# Constant ends, left off below: GGGAGUUCUACAGUCCGACGAUC … UGGAAUUCUCGGGUGUCAAGG
Strand,log2 enrichment
GCAGGAAGUAAAAACAAAUGGAAAUGCUUCGGAUAGUGGCAGGGUUGGGGGUUGCUAAGGAAAGGGUGGGAUGGGAGUGGGUAAAGAGUU,1.27
UGGGAGGUGGAUUUUGUUUAUUUUUUUAGCUCAUUUCCAGGGGUGGGAAUUUUUUUUUAAUAUGUGUCAUGAAUAAAGUUAUUUUUGAAA,1.87
AGUCCUGUGCUACACAUCGUAUGUACCGAAUCGGGGCCCCGGCCCCGGGGCCCCGGGAAAGUAUUAUGUUACGCCGUUCGGAUCUGCACU,-1.19
GUCCUGUGCUACACAUCGUAUGUACCGAAUCAAAUUUUUAAAUUUAAAUUUUUUUAAAAAAGUAUUAUGUUACGCCGUUCGGAUCUGCAC,-0.628
UCCUCAAGUCCUGUGCUACACAUCGUAUGUACCGAAUCGGUUUGGUGGAGGAAAGUAUUAUGUUACGCCGUUCGGAUCUGCACUUCCAGC,-0.248
CACAGACAACACGCACCCACACAGACACAGAGGGAAGGGGUUGGGAUGGGGACAGGGUGCACAGCAGGGCGGGGUAGGACCCCAAACCCU,-0.29
CAAGUCCUGUGCUACACAUCGUAUGUACCGAAUCGGGAAAAAAAGGGUGGGAGGGAAAGUAUUAUGUUACGCCGUUCGGAUCUGCACUUC,0.844
CACAGACAACACGCACCCACACAGACACAGAGGGAAGGGGUUGGGAUGUGGACAGGGUGCACAGCAGGGCGGGGUAGGACCCCAGCCCCU,0.14
UAACUUUAGAGGAGGAUCUGAUGGAUAUGGCAGUGGACGAGGAUUUGGGGAUGGCUAUAAUGGGUAUGGAGGAGGACCUGGAGGUGGCAA,-0.553

# Mixed results
Molecule,target,test,test system,setting,how to read,endpoint,result
"PhoQ, residues 284 288 289 292 302 303 AMDMFI","PhoP, residues 12 14 15 18 19 GQALL (Escherichia coli, UniProt P23836)","Sort-seq, refers to: YFP reporter",E. coli,"PhoQ-PhoP variant library, together with: 10 µM Mg2+","relative to: high Mg2+ state, higher = stronger signaling",fold induction,1.19

# Excerpt of the above (set 3):
Strand,log2 enrichment
UAACUUUAGAGGAGGAUCUGAUGGAUAUGGCAGUGGACGAGGAUUUGGGGAUGGCUAUAAUGGGUAUGGAGGAGGACCUGGAGGUGGCAA,-0.553
CAAGUCCUGUGCUACACAUCGUAUGUACCGAAUCGGGAAAAAAAGGGUGGGAGGGAAAGUAUUAUGUUACGCCGUUCGGAUCUGCACUUC,0.844
AGUCCUGUGCUACACAUCGUAUGUACCGAAUCGGGGCCCCGGCCCCGGGGCCCCGGGAAAGUAUUAUGUUACGCCGUUCGGAUCUGCACU,-1.19
CACAGACAACACGCACCCACACAGACACAGAGGGAAGGGGUUGGGAUGGGGACAGGGUGCACAGCAGGGCGGGGUAGGACCCCAAACCCU,-0.29
CACAGACAACACGCACCCACACAGACACAGAGGGAAGGGGUUGGGAUGUGGACAGGGUGCACAGCAGGGCGGGGUAGGACCCCAGCCCCU,0.14
